{"data": "Assay results collected from several papers", "note": "Each numbered part is a random draw from the data of one study; scales do not carry over between parts. Substitutions count along the parent as printed."}
{"data": "Block 1", "target": "Phosphate system positive regulatory protein PHO4, full length, GST-tagged (PHO4, Saccharomyces cerevisiae, UniProt P07270, residues 1-312)", "technique": "competition protein-binding microarray", "form": "double-stranded DNA, one strand shown", "sample": "in vitro", "concentration": "2 µM", "setting": "whole 60-bp probe, lowest competitor level", "added": "Cbf1 competitor, 0.05 µM", "direction": "higher = stronger binding", "Construct (chain)": "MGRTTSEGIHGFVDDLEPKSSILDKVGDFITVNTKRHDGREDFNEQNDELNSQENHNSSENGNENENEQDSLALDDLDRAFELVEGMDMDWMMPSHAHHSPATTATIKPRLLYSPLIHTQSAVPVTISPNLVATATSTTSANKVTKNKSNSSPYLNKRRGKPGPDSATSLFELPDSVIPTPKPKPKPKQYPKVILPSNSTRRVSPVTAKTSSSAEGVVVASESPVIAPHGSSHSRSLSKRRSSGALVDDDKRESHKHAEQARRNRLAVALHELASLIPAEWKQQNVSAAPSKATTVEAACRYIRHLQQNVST"}
{"Oligonucleotide": "CCTCACCCTAGTGAGCATGTGCCCAGGGCTGGGTCAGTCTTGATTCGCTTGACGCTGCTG", "fluorescence intensity [a.u.]": 11600}
{"Oligonucleotide": "CTAACGAAGGTTTTTCACGTGGCCTACAAGCCAAGTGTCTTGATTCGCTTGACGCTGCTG", "fluorescence intensity [a.u.]": 13100}
{"Oligonucleotide": "CGGGGTTAAGTTTGTCACGTCACTTGCTTGCAGCAGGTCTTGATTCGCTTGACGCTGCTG", "fluorescence intensity [a.u.]": 4360}
{"Oligonucleotide": "GCACTGATGCAGCCGTGCGTGTAACTAAAACATTTAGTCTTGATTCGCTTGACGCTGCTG", "fluorescence intensity [a.u.]": 7190}
{"Oligonucleotide": "TGCGCAACAACTTTTCACGTGTTCTTATGTCTAGAAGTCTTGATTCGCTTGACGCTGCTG", "fluorescence intensity [a.u.]": 14000}
{"data": "Block 2", "target": "Interferon regulatory factor 7, full length, phosphomimetic (IRF7, Homo sapiens, UniProt Q92985, residues 1-503, S101K/S471D/S472D/S475D/S476D/S477D/S483D/S484D/S487D)", "technique": "protein-binding microarray", "form": "double-stranded DNA, one strand shown", "sample": "in vitro", "concentration": "250 nM", "setting": "60-bp whole probe", "added": "salmon DNA 0.4 mg/ml", "relative to": "random background probes", "direction": "higher = stronger binding", "constant ends, left off below": "GCCTAGCAC … GTCTTGATTCGCTTGACGCTGCTG", "chain of UniProt Q92985 (whole entry, unmodified, looked up)": "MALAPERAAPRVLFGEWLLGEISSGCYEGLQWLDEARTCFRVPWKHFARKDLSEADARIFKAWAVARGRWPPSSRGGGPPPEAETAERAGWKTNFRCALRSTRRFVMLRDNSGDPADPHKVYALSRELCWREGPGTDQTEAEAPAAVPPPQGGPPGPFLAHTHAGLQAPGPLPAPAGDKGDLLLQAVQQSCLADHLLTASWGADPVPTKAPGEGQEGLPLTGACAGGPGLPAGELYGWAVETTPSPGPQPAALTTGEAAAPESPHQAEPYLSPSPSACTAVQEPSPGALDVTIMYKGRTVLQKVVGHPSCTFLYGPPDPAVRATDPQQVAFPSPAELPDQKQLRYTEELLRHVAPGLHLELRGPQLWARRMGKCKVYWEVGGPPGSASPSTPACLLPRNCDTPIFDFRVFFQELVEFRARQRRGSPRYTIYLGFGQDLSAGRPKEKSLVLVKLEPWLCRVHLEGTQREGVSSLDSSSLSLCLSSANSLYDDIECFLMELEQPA"}
{"Oligonucleotide": "TTAGGTTTCCTCTCCCTTTAGTGCTAG", "log fluorescence": "1.22 z-score"}
{"Oligonucleotide": "GACGGTATCGACAATCGGGACGTGCTA", "log fluorescence": "-0.432 z-score"}
{"Oligonucleotide": "TTAGGTCTCGGTATCGTTTAGTGCTAG", "log fluorescence": "3.44 z-score"}
{"Oligonucleotide": "TTAAGTATCGGTTTCGGTTAGTGCTAG", "log fluorescence": "10.9 z-score"}
{"Oligonucleotide": "TTAGGACTGGGTATCGGTTAGTGCTAG", "log fluorescence": "0.514 z-score"}
{"data": "Block 3", "target": "CCNB2, cyclin fold, Cln2 fusion (human)", "technique": "yeast growth competition, sequencing", "sample": "yeast", "setting": "weak parent motif", "relative to": "not given", "direction": "higher = stronger binding", "starting sequence": "PKN2 docking peptide (human); VSAVRKLDFSDTM"}
{"Variant": "VSAVRKLDFSDRM [T12R]", "normalised enrichment score": 0.372}
{"Variant": "VSAVRKLDQSDTM [F9Q]", "normalised enrichment score": -0.0973}
{"Variant": "VSAVRKLDFSKTM [D11K]", "normalised enrichment score": 0.405}
{"Variant": "VSAVRKLDFSDCM [T12C]", "normalised enrichment score": 1.73}
{"data": "Mixed results"}
{"Substance": "PhoQ, residues 284 288 289 292 302 303 AQGLTV", "target": "PhoP, residues 12 14 15 18 19 GQAIL (Escherichia coli, UniProt P23836)", "assay": "Sort-seq, measured: YFP reporter", "system": "E. coli", "setting": "PhoQ-PhoP variant library, added: 10 µM Mg2+", "how to read": "relative to: high Mg2+ state, higher = stronger signaling", "endpoint": "fold induction", "result": 1.77}
{"note": "Some of these lines once more (block 2):"}
{"Oligonucleotide": "TTAGGTTTCCTCTCCCTTTAGTGCTAG", "log fluorescence": "1.22 z-score"}
{"Oligonucleotide": "GACGGTATCGACAATCGGGACGTGCTA", "log fluorescence": "-0.432 z-score"}
